Measured values collected from several papers.
Lines come from different studies, so protocols differ. ± marks the error that the study gave.

CCCCCCCCCCCCCCCC(=O)N/N=C/c1ccccc1
MIC (Candida albicans, Aspergillus niger; fungal growth): 49 µM

CC[C@H](C)[C@H](NC(=O)[C@H](CC(=O)O)NC(=O)[C@H](Cc1ccccc1)NC(=O)[C@H](CC(C)C)NC(=O)CN)C(=O)N[C@H](C(=O)N[C@@H](CCCCN)C(=O)N[C@@H](CCCCN)C(=O)N[C@H](C(=O)N[C@H](C(=O)NCC(=O)N[C@@H](C)C(=O)N[C@@H](CC(C)C)C(=O)NCC(N)=O)C(C)C)C(C)C)C(C)C
MIC (Klebsiella pneumoniae; ATCC 700603, CAMHB; 18 h, 37 °C): > 23 µM

CC[C@H](C)[C@H](NC(=O)[C@H](C)N)C(=O)N[C@@H](CCCCN)C(=O)N[C@H](C(=O)N[C@@H](CCCNC(=N)N)C(=O)N[C@@H](CCCCN)C(=O)N[C@@H](CC(C)C)C(=O)N[C@@H](Cc1ccccc1)C(=O)N[C@@H](CCCCN)C(=O)N[C@@H](CCCCN)C(=O)N[C@@H](CC(C)C)C(=O)N[C@@H](CC(C)C)C(=O)N[C@@H](CCCNC(=N)N)C(N)=O)[C@@H](C)CC
MIC (Escherichia coli; ATCC 25922; 1 h, 37 °C, dividing cells in LB): 50 to 100 µg/mL

CCCCCCCCCCCC(=O)N/N=C/c1ccccc1
MIC (Candida albicans, Aspergillus niger; fungal growth): 61.7 µM

CC(C)C[C@H](NC(=O)[C@H](CCCNC(=N)N)NC(=O)[C@H](CC(C)C)NC(=O)[C@@H](NC(=O)[C@H](CC(C)C)NC(=O)[C@H](Cc1c[nH]cn1)NC(=O)[C@H](C)NC(=O)[C@@H](NC(=O)[C@@H](N)CO)[C@@H](C)O)C(C)C)C(=O)N[C@@H](CCCNC(=N)N)C(=O)NCC(=O)NCC(=O)O
MIC (Bacillus megaterium; 899; 37 °C, ≥90% viability decrease): 50 µM

Cc1cccc(C(=O)N/N=C/c2ccccc2)c1
MIC (Candida albicans, Aspergillus niger; fungal growth): 18.6 µM

CSCC[C@H](N)C(=O)N[C@@H](CCCCN)C(=O)N[C@@H](CCCNC(=N)N)C(=O)N[C@@H](CCCNC(=N)N)C(=O)N[C@@H](CCCNC(=N)N)C(=O)N[C@@H](CCCCN)C(=O)N[C@@H](Cc1ccccc1)C(=O)N[C@@H](CO)C(=O)N[C@@H](Cc1c[nH]cn1)C(=O)N[C@@H](Cc1ccccc1)C(=O)N[C@@H](CO)C(=O)N[C@@H](Cc1ccccc1)C(=O)N[C@@H](CCCCN)C(=O)N[C@@H](CCCNC(=N)N)C(=O)NCC(=O)N[C@@H](Cc1ccc(O)cc1)C(=O)O
MIC (Micrococcus luteus): 4 µM

CCOC(=O)[C@]1(CS)N[C@H](C(=O)O)C(C)(C)S1
MIC (Proteus mirabilis; broth microdilution; clinical isolate; compound at 100 mg/L, together with: meropenem): 4 µg/mL

CC(C)C[C@H](NC(=O)[C@H](C)NC(=O)[C@H](CC(C)C)NC(=O)[C@H](Cc1c[nH]cn1)NC(=O)[C@H](CC(C)C)NC(=O)[C@@H](NC(=O)[C@@H](N)CO)[C@@H](C)O)C(=O)N[C@@H](CCCNC(=N)N)C(=O)N[C@@H](CC(C)C)C(=O)N[C@@H](CCCNC(=N)N)C(=O)NCC(=O)NCC(=O)O
MIC (Bacillus megaterium; 899; 37 °C, ≥90% viability decrease): 50 µM

CC[C@H](C)[C@H](NC(=O)[C@H](CCCNC(=N)N)NC(=O)[C@H](CCCNC(=N)N)NC(=O)[C@@H]1CCCN1C(=O)[C@@H]1CCCN1C(=O)[C@H](CCCNC(=N)N)NC(=O)[C@@H]1CCCN1C(=O)[C@H](CCCNC(=N)N)NC(=O)[C@@H]1CCCN1C(=O)[C@H](CCCCN)NC(=O)[C@H](Cc1ccc(O)cc1)NC(=O)[C@@H]1CCCN1C(=O)[C@H](CCCNC(=N)N)NC(=O)[C@H](CCCCN)NC(=O)[C@H](CC(=O)O)NC(=O)[C@@H](N)C(C)C)C(=O)N[C@@H](Cc1ccc(O)cc1)C(=O)N[C@@H](CC(N)=O)C(=O)N[C@@H](CCCNC(=N)N)C(N)=O
MIC (Salmonella enterica serovar Typhimurium; bacterial growth; SL1344): 0.39 ± 0.18 µg/mL

CC(C)C[C@H](NC(=O)[C@H](CCCNC(=N)N)NC(=O)[C@H](CCCNC(=N)N)NC(=O)[C@H](CCCNC(=N)N)NC(=O)[C@H](CCCNC(=N)N)NC(=O)[C@H](CCCCN)NC(=O)[C@@H](N)C(C)C)C(=O)N[C@@H](C)C(=O)NCC(=O)N[C@@H](Cc1ccccc1)C(=O)N[C@@H](CCCNC(=N)N)C(=O)N[C@H](C(=O)N[C@H](C(=O)N[C@@H](CCCNC(=N)N)C(=O)NCC(=O)N[C@@H](Cc1ccc(O)cc1)C(=O)O)C(C)C)[C@@H](C)O
MIC (Micrococcus luteus): 8 µM

COc1cc(OC)cc(C(=O)N/N=C/c2ccccc2Cl)c1
MIC (Candida albicans, Aspergillus niger; fungal growth): 16.2 µM

LSTFFRLFNRSFTQGRRRRSVQWCA
MIC (Streptococcus sanguinis; broth microdilution; peptide, ATCC 49295; 24 h, 37 °C, planktonic, anaerobic): 99.6 ± 33.7 µg/mL

O=C(N/N=C/c1ccccc1Cl)c1cc([N+](=O)[O-])cc([N+](=O)[O-])c1
MIC (Candida albicans, Aspergillus niger; fungal growth): 14.8 µM

CC[C@H](C)C[C@H](C)CCCCCCCCC(=O)N[C@H]1C[C@@H](O)[C@@H](NCCN)NC(=O)[C@@H]2[C@@H](O)CCN2C(=O)[C@H]([C@H](O)CCN)NC(=O)[C@H]([C@H](O)[C@@H](O)c2ccc(O)cc2)NC(=O)[C@@H]2C[C@@H](O)CN2C(=O)[C@H]([C@@H](C)O)NC1=O
MIC (Candida tropicalis; ATCC 750, RPMI 1640, 0.165 M MOPS; 24 h, 35 °C, 100% inhibition endpoint): 0.1 µg/mL

TFFRLFNRGRRRRSVQWCA
MIC (Streptococcus gordonii; broth microdilution; peptide, ATCC 10558; 24 h, 37 °C, planktonic, anaerobic): 49.8 ± 16.9 µg/mL

O=C(NCc1ccc2c(c1)OCO2)c1ccc(Br)cc1F
MIC (Saccharomyces cerevisiae; microbial growth; 72 h): 50 µM

CC(=O)C1=C(O)C(CC(C)C)NC1=O (stereo not shown)
MIC (Clostridioides difficile; microbial growth, broth dilution; BAA1803; 24 h): > 128 µg/mL

STFFRLFNRSFTQGRRRRSVQWCA
MIC (Streptococcus sanguinis; broth microdilution; peptide, ATCC 49295; 24 h, 37 °C, planktonic, anaerobic): 99.6 ± 33.7 µg/mL

CC(C)C[C@H](NC(=O)CNC(=O)[C@H](C)NC(=O)[C@@H](N)CCCNC(=N)N)C(=O)N[C@@H](CCC(N)=O)C(=O)N[C@@H](Cc1ccccc1)C(=O)N1CCC[C@H]1C(=O)N[C@H](C(=O)NCC(=O)N[C@@H](CCCNC(=N)N)C(=O)N[C@H](C(=O)N[C@@H](Cc1c[nH]cn1)C(=O)N[C@@H](CCCNC(=N)N)C(=O)N[C@@H](CC(C)C)C(=O)N[C@@H](CC(C)C)C(=O)N[C@@H](CCCNC(=N)N)C(=O)N[C@@H](CCCCN)C(N)=O)C(C)C)C(C)C
MIC (Enterobacter aerogenes; ATCC 13048; 18 to 20 h): > 32 µM

TFFRLFNRSFTGRRRRSVQWCA
MIC (Streptococcus sanguinis; broth microdilution; peptide, ATCC 49295; 24 h, 37 °C, planktonic, anaerobic): 99.6 ± 33.7 µg/mL

CCOC(=O)[C@@]1(CS)N[C@@H](C(=O)O)CS1
MIC (Proteus mirabilis; broth microdilution; clinical isolate; compound at 100 mg/L, together with: meropenem): 8 µg/mL

LSTFFRLFNGRRRRSVQWCA
MIC (Streptococcus sanguinis; broth microdilution; peptide, ATCC 49295; 24 h, 37 °C, planktonic, anaerobic): 99.6 ± 33.7 µg/mL

CC[C@H](C)[C@H](NC(=O)[C@@H]1CCCN1C(=O)[C@H](CCCCN)NC(=O)[C@@H]1CCCN1C(=O)[C@@H]1CCCN1C(=O)[C@@H](NC(=O)[C@@H]1CCCN1C(=O)[C@H](CCCNC(=N)N)NC(=O)[C@@H]1CCCN1C(=O)[C@H](CCCNC(=N)N)NC(=O)[C@H](Cc1ccc(O)cc1)NC(=O)[C@H](CO)NC(=O)CNC(=O)[C@H](CCCCN)NC(=O)[C@H](CC(=O)O)NC(=O)[C@@H](N)C(C)C)[C@@H](C)O)C(=O)N[C@@H](Cc1ccc(O)cc1)C(=O)N[C@@H](CC(N)=O)C(=O)N[C@@H](CCCNC(=N)N)C(=O)N[C@@H](CC(N)=O)C(=O)O
MIC (Salmonella enterica serovar Typhimurium; SL1344, Mueller-Hinton broth; 18 h, 37 °C): 0.075 ± 0.018 µM

O=C(N/N=C/c1ccccc1)c1cc([N+](=O)[O-])cc([N+](=O)[O-])c1
MIC (Candida albicans, Aspergillus niger; fungal growth): 20 µM

O=C(NCc1ccc2c(c1)OCO2)c1ncc(Br)cc1F
MIC (Aspergillus brasiliensis; microbial growth; ATCC16404; 72 h): 50 µM

actinomycin Y3
MIC (Micrococcus luteus; broth microdilution; ATCC 15307; 16 to 48 h): 4.67 µg/mL

CC[C@H](C)[C@H](NC(=O)CN)C(=O)NCC(=O)N[C@@H](C)C(=O)N[C@H](C(=O)N[C@@H](CC(C)C)C(=O)N[C@@H](CCCCN)C(=O)N[C@H](C(=O)N[C@@H](CC(C)C)C(=O)N[C@H](C(=O)N[C@H](C(=O)NCC(=O)N[C@@H](CC(C)C)C(=O)N1CCC[C@H]1C(=O)N[C@@H](C)C(=O)N[C@@H](CC(C)C)C(=O)N[C@H](C(=O)N[C@@H](CO)C(=O)N[C@@H](Cc1c[nH]c2ccccc12)C(=O)N[C@H](C(=O)N[C@@H](CCCCN)C(=O)N[C@@H](CCCNC(=N)N)C(=O)N[C@@H](CCCCN)C(=O)N[C@@H](CCCNC(=N)N)C(=O)N[C@@H](CCC(N)=O)C(=O)N[C@@H](CCC(N)=O)C(N)=O)[C@@H](C)CC)[C@@H](C)CC)[C@@H](C)O)[C@@H](C)O)C(C)C)C(C)C
MIC (Salmonella typhimurium; broth microdilution; KCTC 1926; 16 h, 37 °C): 1.6 µM

CC(C)C[C@H](NC(=O)[C@H](CCCNC(=N)N)NC(=O)[C@H](CC(C)C)NC(=O)[C@@H](NC(=O)[C@H](CC(C)C)NC(=O)[C@H](Cc1c[nH]cn1)NC(=O)[C@H](CC(C)C)NC(=O)[C@@H](NC(=O)[C@H](C)N)[C@@H](C)O)C(C)C)C(=O)N[C@@H](CCCNC(=N)N)C(=O)NCC(=O)NCC(=O)O
MIC (Bacillus megaterium; 899; 37 °C, ≥90% viability decrease): 5 µM

Cc1cccc(C(=O)N/N=C/c2ccccc2Cl)c1
MIC (Candida albicans, Aspergillus niger; fungal growth): 37.2 µM

CC(C)C[C@H](NC(=O)[C@H](CCCNC(=N)N)NC(=O)[C@@H]1CCCN1C(=O)[C@H](CCCNC(=N)N)NC(=O)[C@@H]1CCCN1C(=O)[C@@H]1CCCN1C(=O)[C@H](CCCNC(=N)N)NC(=O)[C@@H]1CCCN1C(=O)[C@H](CCC(N)=O)NC(=O)[C@@H]1CCCN1C(=O)[C@H](CCCNC(=N)N)NC(=O)[C@H](Cc1ccc(O)cc1)NC(=O)[C@@H](NC(=O)[C@@H]1CCCN1C(=O)[C@H](CCCCN)NC(=O)[C@H](CC(N)=O)NC(=O)[C@H](CC(N)=O)NC(=O)CN)C(C)C)C(=O)O
MIC (Salmonella enterica serovar Typhimurium; SL1344, Mueller-Hinton broth; 18 h, 37 °C): 0.192 ± 0.044 µM

CC(C)C[C@H](NC(=O)[C@H](C)NC(=O)[C@H](CC(C)C)NC(=O)[C@@H](NC(=O)[C@@H](N)CO)[C@@H](C)O)C(=O)N[C@H](C(=O)N[C@@H](CC(C)C)C(=O)N[C@@H](CCCNC(=N)N)C(=O)N[C@@H](CC(C)C)C(=O)N[C@@H](CCCNC(=N)N)C(=O)NCC(=O)NCC(=O)O)C(C)C
MIC (Bacillus megaterium; 899; 37 °C, ≥90% viability decrease): 10 µM

CC[C@H](C)[C@H](NC(=O)[C@@H]1CCCN1C(=O)[C@H](CCCNC(=N)N)NC(=O)[C@@H]1CCCN1C(=O)[C@@H]1CCCN1C(=O)[C@@H](NC(=O)[C@@H]1CCCN1C(=O)[C@H](CCCNC(=N)N)NC(=O)[C@@H]1CCCN1C(=O)[C@H](CC(C)C)NC(=O)[C@H](Cc1ccc(O)cc1)NC(=O)[C@H](CO)NC(=O)CNC(=O)[C@H](CCCCN)NC(=O)[C@H](CC(=O)O)NC(=O)[C@@H](N)C(C)C)[C@@H](C)O)C(=O)N[C@@H](Cc1ccc(O)cc1)C(=O)N[C@@H](CC(N)=O)C(=O)N[C@@H](CCCNC(=N)N)C(=O)N[C@@H](CC(N)=O)C(=O)O
MIC (Salmonella enterica serovar Typhimurium; SL1344, Mueller-Hinton broth; 18 h, 37 °C): 1.2 ± 0.278 µM

CCCCCCCCCCCC(=O)N/N=C/c1ccccc1Cl
MIC (Candida albicans, Aspergillus niger; fungal growth): 26.3 µM
